Experimental data of several laboratories.
Numbered parts are unrelated; each lists some results of a single study.

Block 1 — method: universal PBM; form: double-stranded DNA, one strand shown; matrix: in vitro; concentration: 600 nM; direction: higher = stronger binding
Target: Sal-like protein 4, full length isoform A (SALL4, Homo sapiens, UniProt Q9UJQ4, residues 1-1053)
Chain of UniProt Q9UJQ4 (whole entry, looked up): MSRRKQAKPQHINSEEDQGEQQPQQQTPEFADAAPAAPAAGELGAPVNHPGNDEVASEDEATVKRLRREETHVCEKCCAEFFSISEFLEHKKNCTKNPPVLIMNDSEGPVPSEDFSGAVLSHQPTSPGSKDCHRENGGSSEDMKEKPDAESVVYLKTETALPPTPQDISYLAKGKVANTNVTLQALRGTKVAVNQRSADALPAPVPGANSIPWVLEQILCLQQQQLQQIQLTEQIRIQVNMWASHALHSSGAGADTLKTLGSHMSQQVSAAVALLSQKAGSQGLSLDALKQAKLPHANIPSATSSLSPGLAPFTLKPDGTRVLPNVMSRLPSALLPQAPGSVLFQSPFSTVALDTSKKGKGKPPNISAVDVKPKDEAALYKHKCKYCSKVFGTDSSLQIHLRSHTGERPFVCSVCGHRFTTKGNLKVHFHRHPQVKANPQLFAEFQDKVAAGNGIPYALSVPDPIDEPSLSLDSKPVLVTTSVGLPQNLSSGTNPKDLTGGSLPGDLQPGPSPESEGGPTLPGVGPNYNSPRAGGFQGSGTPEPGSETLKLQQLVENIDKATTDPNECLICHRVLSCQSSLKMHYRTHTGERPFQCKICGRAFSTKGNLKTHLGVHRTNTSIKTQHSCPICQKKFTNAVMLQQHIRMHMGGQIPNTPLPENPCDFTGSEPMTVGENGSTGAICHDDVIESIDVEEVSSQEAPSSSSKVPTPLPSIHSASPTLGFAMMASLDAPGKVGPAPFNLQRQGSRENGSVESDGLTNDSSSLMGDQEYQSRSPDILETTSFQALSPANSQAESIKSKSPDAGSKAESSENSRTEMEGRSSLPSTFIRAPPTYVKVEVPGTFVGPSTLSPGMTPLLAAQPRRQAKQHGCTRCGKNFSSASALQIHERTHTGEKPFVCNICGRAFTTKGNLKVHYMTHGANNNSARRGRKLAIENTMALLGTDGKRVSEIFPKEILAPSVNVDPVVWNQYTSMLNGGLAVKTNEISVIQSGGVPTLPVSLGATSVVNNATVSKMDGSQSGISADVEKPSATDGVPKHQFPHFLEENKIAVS
Notes: 8-mer, flanks averaged, mean of replicates
For `ACCAATAC`, the E-score was 0.168.
For `CCCCAAGA`, the E-score was -0.196.
For `AAGTTGGG`, the E-score was -0.156.
The E-score of `GCGGGAAA` is reported as -0.0769.
With `AAAAGGCT` the E-score was 0.0069.
`CCGCCGCG` gave an E-score of -0.336.
`AACACAAT` has an E-score of 0.254.
With `GCAAATCA` the E-score was 0.14.

Block 2 — method: protein binding microarray; form: double-stranded DNA, one strand shown; matrix: in vitro; concentration: not given; relative to: not given; direction: higher = stronger binding
Target: Histone acetyltransferase KAT6A, winged helix 1, GST fusion (KAT6A, Homo sapiens, UniProt Q92794, residues 1-85)
Notes: 8-mer, flanks averaged, mean of 2 arrays, mostly near background
Construct (chain): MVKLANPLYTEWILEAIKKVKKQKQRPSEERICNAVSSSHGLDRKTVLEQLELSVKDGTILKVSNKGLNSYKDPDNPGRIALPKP
`ACGTCATG` has an E-score of -0.0263.
`CTTTACAA` gave an E-score of -0.165.
For `ACGATTCA`, the E-score was -0.0375.
`CACTTTAA` has an E-score of -0.137.
`AACCCCAG` has an E-score of -0.275.
For `AGTTTCTA`, the E-score was -0.152.
`CACAATCC` gave an E-score of -0.00322.

Block 3 — method: RNA Bind-n-Seq; form: RNA; matrix: in vitro; concentration: 100 nM; relative to: input RNA pool; direction: higher = stronger binding
Target: RING finger protein unkempt homolog, zinc fingers 1-6, SBP tag (UNK, Homo sapiens, UniProt Q9C0B0, residues 30-357)
Chain of UniProt Q9C0B0 (30-357, looked up): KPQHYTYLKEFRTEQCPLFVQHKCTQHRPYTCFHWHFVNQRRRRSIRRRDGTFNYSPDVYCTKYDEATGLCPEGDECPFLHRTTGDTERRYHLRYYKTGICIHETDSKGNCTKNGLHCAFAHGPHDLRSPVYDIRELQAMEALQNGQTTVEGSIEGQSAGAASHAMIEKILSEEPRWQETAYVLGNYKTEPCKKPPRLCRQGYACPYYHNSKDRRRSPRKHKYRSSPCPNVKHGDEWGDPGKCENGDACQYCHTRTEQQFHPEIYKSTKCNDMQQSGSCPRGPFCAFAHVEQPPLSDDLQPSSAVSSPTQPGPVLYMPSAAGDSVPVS
Notes: RNA with constant flanks, vertebrate orthologous sites, ends assumed
`GGGAGUUCUACAGUCCGACGAUCAAACCCCGAUUUUAGACGUGCUAUCAAGGCUUUCAUUCCAGUUUGUUUUGUCUUCUUGUUUAGAUACCAAUCUUUUAAAUUCUUGCAUUUUAGUAAGAAAGCUACGUUUUUAUGGAUGUUCAACAGAGGAUUGAGCAUCA` gave a bound/input enrichment of 0.832 ratio.
`GGGAGUUCUACAGUCCGACGAUCCAUAAUCACUCUAAUUGUAAUCUGACAAAGUGUAACAUUGUGUAGCCUUUUUGUAUAAAAUAGACAAAUAGAAACGGUCCAAUUGGUUUCCUUUUUAAUAUGCUUAAAAUAAGCAGGUGGCAACAGAGGAUUGAGCAUCA` has a bound/input enrichment of 1.13 ratio.
`GGGAGUUCUACAGUCCGACGAUCGAAGAAUAGCAUAAGAAGUUGUGGUCAGAAAAGUUAGGAGCAGUUGGGGAAGGAAGUUACAAAUGUCAAAUAUCAAGAGCCAGAUGGAUAAAAUGUAGAGAUGAAGGUCAUUGAAACUCACAACAGAGGAUUGAGCAUCA` has a bound/input enrichment of 0.666 ratio.
`GGGAGUUCUACAGUCCGACGAUCGUCCCUCAGUGACAGCGUGCCCUCCGUGGCCGAGUCCCACUCGAGUCACUUUUCAGAGUUCAGUUGUUCUGACCUGGAAAGCAUGAAGACUUCCUGUAGCCACGGGUCCAGUGACUACCACAACAGAGGAUUGAGCAUCA` gave a bound/input enrichment of 0.146 ratio.

Mixed results
`PhoQ, residues 284 288 289 292 302 303 AGCYAI` has a fold induction of 24.2 (PhoP, residues 12 14 15 18 19 VQALL (Escherichia coli, UniProt P23836); Sort-seq, refers to: YFP reporter; E. coli; PhoQ-PhoP variant library, together with: 10 µM Mg2+; relative to: high Mg2+ state, higher = stronger signaling).

Excerpt of the above (block 1):
For `AAGTTGGG`, the E-score was -0.156.
With `AAAAGGCT` the E-score was 0.0069.
For `ACCAATAC`, the E-score was 0.168.
